Measured values gathered from unrelated publications.
Every numbered part comes from another study and shows a few of its results, in no order. Changes are numbered by the printed parent chain.

Sample 1
Target: Sal-like protein 4, full length isoform B (SALL4, Homo sapiens, UniProt Q9UJQ4-2, residues 1-616)
Method: universal PBM
Molecule type: double-stranded DNA, one strand shown
Matrix: in vitro
Concentration: not given
Notes: 8-mer, flanks averaged, mean of replicates
Direction: higher = stronger binding
Oligonucleotide | E-score
ACGCGCCT | -0.0995
ACCTAGCA | 0.0199
ATGGATGA | 0.129
ACGCCCGA | -0.159
TTAACGAA | 0.174
ACCCACGA | -0.215
CATGCCCA | -0.339
AGCCCGCA | -0.267

Sample 2
Target: Ras GTPase-activating protein-binding protein 1, C-terminal RGG region (G3BP1, Homo sapiens, UniProt Q13283)
UniProt Q13283, sequence (whole entry, looked up): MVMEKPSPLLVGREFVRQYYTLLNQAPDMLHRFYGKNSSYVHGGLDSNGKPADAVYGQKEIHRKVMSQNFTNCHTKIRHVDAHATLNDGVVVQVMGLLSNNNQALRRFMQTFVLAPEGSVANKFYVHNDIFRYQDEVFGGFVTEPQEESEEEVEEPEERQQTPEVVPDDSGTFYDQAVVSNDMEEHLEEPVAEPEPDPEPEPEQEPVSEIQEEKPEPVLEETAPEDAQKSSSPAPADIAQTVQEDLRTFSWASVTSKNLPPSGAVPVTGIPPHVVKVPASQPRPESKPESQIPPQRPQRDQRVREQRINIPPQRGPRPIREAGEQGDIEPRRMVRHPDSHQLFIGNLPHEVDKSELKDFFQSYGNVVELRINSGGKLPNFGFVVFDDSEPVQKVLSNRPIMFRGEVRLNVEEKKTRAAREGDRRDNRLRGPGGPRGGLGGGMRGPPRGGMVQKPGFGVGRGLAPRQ
Method: RNA Bind-n-Seq
Molecule type: RNA
Matrix: in vitro
Concentration: 1 µM
Notes: whole 134-nt RNA, ends assumed
With: 150 mM KCl
Baseline: input library
Direction: higher = stronger binding
Shared flanks, not repeated: GGGAGUUCUACAGUCCGACGAUC … UGGAAUUCUCGGGUGUCAAGG
Oligonucleotide | log2 enrichment
ACCAUGCAGGUGGGCAUCUUUGGGAAGUGGGGCAAGGGGGGGAUAGGGAGGGGGGUAACACUAUGGGAACAGGUGGUCCCAGGUCGUUUC | 2.15
UCCUCAAGUCCUGUGCUACACAUCGUAUGUACCGAAUCGGGAGGAGGAGGGGAAAGUAUUAUGUUACGCCGUUCGGAUCUGCACUUCCAG | -0.594
GCAGGAAGUAAAAACAAAUGGAAAUGCUUCGGAUAGUGGCAGGGGUGGGGGUUGCUAAGGAAAGGGUGGGAUGGGAGUGGGUAAAGAGAU | 1.23
AAGUCCUGUGCUACACAUCGUAUGUACCGAAUCGGGGUUUGGGGAGGGGUUUGGGGAAAGUAUUAUGUUACGCCGUUCGGAUCUGCACUU | 1.9
CAAGUCCUGUGCUACACAUCGUAUGUACCGAAUCGGGAAAGGGGAAAGGAAAGGGAAAGUAUUAUGUUACGCCGUUCGGAUCUGCACUUC | -1.13
AAGUCCUGUGCUACACAUCGUAUGUACCGAAUCGGGUUUUGGGUUUUGGUUUUGGGAAAGUAUUAUGUUACGCCGUUCGGAUCUGCACUU | -1.28
CUCAAGUCCUGUGCUACACAUCGUAUGUACCGAAUCGGGGUUGGUUGGGGUUGGAAAGUAUUAUGUUACGCCGUUCGGAUCUGCACUUCC | -0.527
ACCAUGCAGGUGGGCAUCUUUGGGAAGUGGGGCAAGGGGGGGAUAGGGAGGGGAGUAACACUUUGGGAACAGGUGGUCCCAGGUCGUUUC | 1.98

Mixed results
P1: viral docking peptide; YKVKRRLVFGADD; partner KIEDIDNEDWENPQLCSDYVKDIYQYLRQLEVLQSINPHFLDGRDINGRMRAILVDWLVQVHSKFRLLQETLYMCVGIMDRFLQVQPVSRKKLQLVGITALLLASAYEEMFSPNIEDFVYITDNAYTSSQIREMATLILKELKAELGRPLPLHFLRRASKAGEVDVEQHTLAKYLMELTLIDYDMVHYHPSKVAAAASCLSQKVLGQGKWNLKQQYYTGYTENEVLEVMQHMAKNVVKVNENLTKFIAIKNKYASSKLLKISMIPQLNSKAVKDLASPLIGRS
Molecule | target | assay | system | conditions | how to read | measurement | result
PhoQ, residues 284 288 289 292 302 303 NLMGRA | PhoP, residues 12 14 15 18 19 LHHVQ (Escherichia coli, UniProt P23836) | Sort-seq, refers to: YFP reporter | E. coli | PhoQ-PhoP variant library, with: 10 µM Mg2+ | baseline: high Mg2+ state, higher = stronger signaling | fold induction | 2.59
P1 G10M | CCNB2, cyclin fold, Cln2 fusion (human) | yeast growth competition, sequencing | yeast | strong parent motif | baseline: not given, higher = stronger binding | normalised enrichment score | 1.25
